# Assay results of several laboratories.
# Compare with care: the assays were run in different laboratories. Several values in a cell are separate wells, animals, samples, runs or records. ± gives the spread as reported.
SMILES,cell line,assay,system,conditions,how to read,endpoint,value
CNC(=O)Oc1cc(C)c(SC)c(C)c1,SH-SY5Y,"cell viability, propidium iodide staining",,"24 h, freely dissolved concentration",,IC10,0.025 µM
N#C[C@@]1(n2ccc(N)nc2=O)O[C@H](CO)[C@@H](O)[C@H]1O,CHO,,,"130 µM, without S9",,micronucleated cells,0.33%
O=C(O)C(F)(F)C(F)(F)C(F)(F)C(F)(F)F,hTERT-RPTEC parental,,,"concentration not given, 96-well plate",,LDH release,29.2 mU/mL and 18.4 mU/mL and 28.2 mU/mL and 27.6 mU/mL
CC(C)(c1ccc(O)cc1)c1ccc(O)cc1,HepG2 spheroids,annexin V-FITC/PI flow cytometry,,"0.01 µM, 96 h",,necrotic cells,30.7 ± 11.1%
O=c1ccc2ccccc2o1,HepG2,cell count,,"concentration not given, 24 h, high-content imaging",,response probability,0.03%
Cc1cc(C(C)(C)c2ccc(O)c(C)c2)ccc1O,"HepG2 spheroids, dissociated",annexin V-FITC/PI flow cytometry,,"40 µM, 24 h",,viable cells,68.2 ± 4.51%
CC(C)C[C@H](NC(=O)[C@H](CCCNC(=N)N)NC(=O)[C@H](Cc1c[nH]c2ccccc12)NC(=O)[C@H](CCCNC(=N)N)NC(=O)[C@H](Cc1c[nH]c2ccccc12)NC(=O)[C@H](Cc1c[nH]c2ccccc12)NC(=O)[C@H](Cc1c[nH]c2ccccc12)NC(=O)[C@H](CCCNC(=N)N)NC(=O)[C@H](Cc1c[nH]c2ccccc12)NC(=O)[C@H](CCCNC(=N)N)NC(=O)CN)C(N)=O,HD11 macrophages,,,,,LC50,> 512 µM
O=[N+]([O-])c1ccc(-c2nn(-c3ccccc3)c3sc(NC(c4ccccc4O)P(=O)(Oc4ccccc4)Oc4ccccc4)nc23)cc1 (centres unmarked),Vero cells,SRB,,"0.1 µM, 10% fetal bovine serum",,viability,98.2%
CC[C@H](NC(=O)[C@H](CS(=O)(=O)CC1CC1)N[C@@H](c1ccc(F)cc1)C(F)(F)F)C(=O)C(=O)NC1CC1,293T-ACE2,,,40 (unit not given),,CC50,> 2.5 µM
Nc1nc(CC(O)c2ccc(Cl)cc2)c(Br)c(=O)[nH]1 (centres unmarked),HEL human embryonic lung fibroblasts,cell morphology alteration,,,,minimum cytotoxic concentration,> 100 µM
O=C(O)C(F)(F)C(F)(F)C(F)(F)C(F)(F)C(F)(F)F,hTERT-RPTEC parental,LDH release,culture medium,"concentration not given, 24 h, 96-well plate",,LDH activity in medium,29.2 mU/mL
C[C@H](NC(=O)[C@H](Cc1ccc(O)cc1)NC(=O)[C@H](CCCNC(=N)N)NC(=O)[C@H](CCCNC(=N)N)NC(=O)[C@H](CCCNC(=N)N)NC(=O)[C@@H](N)CCCNC(=N)N)C(=O)N[C@@H](CCCNC(=N)N)C(=O)N1CCC[C@H]1C(=O)N[C@@H](Cc1ccc(O)cc1)C(=O)N[C@@H](Cc1ccc(O)cc1)C(=O)N[C@@H](CCCNC(=N)N)C(=O)N[C@@H](CCCNC(=N)N)C(=O)N[C@@H](CCCNC(=N)N)C(=O)O,DF-1,LDH release,,"3 µM, 1 h",,viability,98.7 ± 1.22%
COc1cc2c(cc1N1C[C@@H](C)N[C@@H](C)C1)N(C(=O)c1ccc(-c3ccc(-c4noc(C)n4)cc3C)cc1)CC2,293T-ACE2,,,40 (unit not given),,CC50,19 µM
N=C(N)NCCC[C@H](NC(=O)[C@H](CCCNC(=N)N)NC(=O)[C@H](CCCNC(=N)N)NC(=O)[C@H](CCC(N)=O)NC(=O)[C@H](CCCNC(=N)N)NC(=O)[C@H](CCCNC(=N)N)NC(=O)[C@H](CCCCN)NC(=O)[C@H](CCCCN)NC(=O)[C@H](CCCNC(=N)N)NC(=O)CNC(=O)[C@@H](N)Cc1ccc(O)cc1)C(=O)O,DF-1,,,"25 µM, 12 h",relative to: untreated cells,viability,104.9 ± 0.29%
N=C(N)NCCC[C@H](NC(=O)[C@H](Cc1c[nH]c2ccccc12)NC(=O)[C@H](CCCNC(=N)N)NC(=O)[C@H](Cc1c[nH]c2ccccc12)NC(=O)[C@H](Cc1c[nH]c2ccccc12)NC(=O)[C@H](Cc1c[nH]c2ccccc12)NC(=O)[C@H](CCCNC(=N)N)NC(=O)[C@H](Cc1c[nH]c2ccccc12)NC(=O)[C@@H](N)CCCNC(=N)N)C(N)=O,HD11 macrophages,,,,,LC50,> 512 µM
CN(C)CCCC1(c2ccc(F)cc2)OCc2cc(C#N)ccc21 (centres unmarked),SH-SY5Y,"cell viability, propidium iodide staining",,"24 h, freely dissolved concentration",,IC10,52.8 µM
CC[C@@H](C)[C@H]1O[C@@H](c2c(O)c(-c3ccccc3)cn(OC)c2=O)[C@H](C)C[C@@H]1C,SK-MEL,"cytotoxicity, neutral red uptake",,48 h,,IC50,> 10 µg/mL
O=C(O)C(F)(F)C(F)(F)C(F)(F)C(F)(F)C(F)(F)C(F)(F)C(F)(F)C(F)(F)C(F)(F)F,hTERT-RPTEC parental,,,"concentration not given, 96-well plate",,LDH release,22.7 mU/mL and 23.3 mU/mL and 28.7 mU/mL and 27.7 mU/mL
CC[C@H](C)[C@H](NC(=O)[C@@H](N)CC(N)=O)C(=O)N1CCC[C@H]1C(=O)N1CCC[C@H]1C(=O)N[C@@H](CC(C)C)C(=O)N[C@H](C(=O)N[C@@H](CCC(N)=O)C(=O)N[C@H](C(=O)N1CCC[C@H]1C(=O)N[C@H](C(=O)N[C@H](C(=O)N[C@H](C(=O)N1CCC[C@H]1C(=O)N1CCC[C@H]1C(=O)N[C@@H](Cc1ccccc1)C(=O)N[C@@H](CC(C)C)C(=O)N[C@@H](CCC(N)=O)C(=O)N1CCC[C@H]1C(=O)N[C@@H](CCC(=O)O)C(=O)O)C(C)C)C(C)C)C(C)C)[C@@H](C)O)[C@@H](C)O,Caco-2 monolayers,,,"10 µM, 30 min, 37 °C",,transport,0.39 ± 0.17%
C[C@@H](c1ccc2nccn2c1)n1nnc2ncc(-c3cnn(C)c3)nc21,primary human hepatocytes,measured: CYP2B6,human,"concentration not given, 48 h",relative to: phenobarbital,mRNA induction,19%
CNC(=O)Oc1cccc2ccccc12,SH-SY5Y,"cell viability, propidium iodide staining",,"24 h, freely dissolved concentration",,IC10,0.573 µM
N#Cc1c[nH]c2ccccc12,uninfected HCT-8,"cytotoxicity, Hoechst nuclei count",,,,EC50,795 µM
CC(C)(Oc1ccc(CCNC(=O)c2ccc(Cl)cc2)cc1)C(=O)O,HEK293-H PPARγ-UAS-bla cells,cell confluency,,"24 h, nominal concentration",relative to: baseline IC10 over IC10,toxic ratio,2.6
COc1cc2c(c(OC)c1OC)-c1ccc(OC)c(=O)cc1[C@@H](NC(C)=O)CC2,CHO-WBL,,,"8 µg/mL, 3 h, without S9",,micronuclei per binucleated cell,0.063
Nc1nc(O)c2ncn(COC(CO)CO)c2n1,HEL human embryonic lung fibroblasts,cell morphology alteration,,,,minimum cytotoxic concentration,> 100 µM
O=S(=O)(c1ccc(O)cc1)c1ccc(O)cc1,"HepG2 spheroids, dissociated",annexin V-FITC/PI flow cytometry,,"0.01 µM, 96 h",,viable cells,38.8 ± 4.56%

# A few entries again:
SMILES,cell line,assay,system,conditions,how to read,endpoint,value
N=C(N)NCCC[C@H](NC(=O)[C@H](CCCNC(=N)N)NC(=O)[C@H](CCCNC(=N)N)NC(=O)[C@H](CCC(N)=O)NC(=O)[C@H](CCCNC(=N)N)NC(=O)[C@H](CCCNC(=N)N)NC(=O)[C@H](CCCCN)NC(=O)[C@H](CCCCN)NC(=O)[C@H](CCCNC(=N)N)NC(=O)CNC(=O)[C@@H](N)Cc1ccc(O)cc1)C(=O)O,DF-1,,,"25 µM, 12 h",relative to: untreated cells,viability,104.9 ± 0.29%
CN(C)CCCC1(c2ccc(F)cc2)OCc2cc(C#N)ccc21 (centres unmarked),SH-SY5Y,"cell viability, propidium iodide staining",,"24 h, freely dissolved concentration",,IC10,52.8 µM
